Results pooled from the literature.
Parts stem from different laboratories: compare values within a part only. Positions count from the first letter of the parent shown.

Study 1 — method: DHFR PCA, deep sequencing; medium: yeast; with: (+)-ABA 4.8 µM; relative to: wild-type fitted maximum; direction: higher = stronger binding
Target: ABI1, truncated, D143A, DHFR fusion (Arabidopsis thaliana)
Notes: methotrexate growth selection, single substitutions
Starting sequence: PYL1, truncated, DHFR fusion (Arabidopsis thaliana); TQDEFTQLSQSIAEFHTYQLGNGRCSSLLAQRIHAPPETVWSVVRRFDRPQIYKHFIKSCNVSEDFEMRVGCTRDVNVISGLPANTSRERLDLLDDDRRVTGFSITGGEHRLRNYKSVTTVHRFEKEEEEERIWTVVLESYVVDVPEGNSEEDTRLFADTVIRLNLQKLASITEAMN
For `L29K`, “relative binding score” read 6.42%.
For `S27L`, “relative binding score” read 6.12%.
`E128R`: “relative binding score” 66%.
`E139L` — result for “relative binding score”: 15.2%.
`Q2A`: “relative binding score” 72.2%.
Under “relative binding score”, `R74M` is recorded as 9.35%.
Under “relative binding score”, `A35N` is recorded as -8.92%.
`Y115N`: “relative binding score” 6.12%.
For `F15V`, “relative binding score” read 2.23%.
`L82S` — result for “relative binding score”: 3.09%.
Under “relative binding score”, `G107Q` is recorded as 13.6%.
`N165L` — result for “relative binding score”: -4.25%.
Under “relative binding score”, `N77R` is recorded as 84.4%.
`S87N` — result for “relative binding score”: 16.9%.

Study 2 — method: RNA Bind-n-Seq; molecule type: RNA; medium: in vitro; tested at: not given; relative to: input RNA pool; direction: higher = stronger binding
Target: RING finger protein unkempt homolog, zinc fingers 1-6, GST-SBP tag (UNK, Homo sapiens, UniProt Q9C0B0, residues 30-357)
UniProt Q9C0B0, sequence (30-357, looked up): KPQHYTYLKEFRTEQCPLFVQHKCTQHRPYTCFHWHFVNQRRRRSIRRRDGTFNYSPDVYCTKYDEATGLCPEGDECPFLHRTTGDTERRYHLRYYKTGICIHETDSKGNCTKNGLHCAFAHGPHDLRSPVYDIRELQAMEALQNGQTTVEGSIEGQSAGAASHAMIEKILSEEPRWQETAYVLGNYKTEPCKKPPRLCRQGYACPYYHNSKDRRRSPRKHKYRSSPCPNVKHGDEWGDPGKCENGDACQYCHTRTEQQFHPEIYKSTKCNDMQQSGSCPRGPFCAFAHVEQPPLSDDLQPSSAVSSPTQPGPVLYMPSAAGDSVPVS
Notes: RNA with constant flanks, human and mouse sites, ends assumed
Shared flanks, not repeated: GGGAGUUCUACAGUCCGACGAUC … CAACAGAGGAUUGAGCAUCA
The bound/input enrichment of `CAUUUAGCGUCUUUUGGGAAAGCCAAACAGUUCAUGAAUUUUCUGGUUGGACUUUUAAAAUUAGGUGAGUUGAUAAACUUCUUGAUUUUCCUACAAAAGGGAAAGUUUGCAACUUUGACA` is reported as 1.73 ratio.
The bound/input enrichment of `AUAACUACUCCUGCCAUGGCCGUCAGCCAUAUCAUGUUGGAAUCAUAUAAAAAGUAUAUUCUAGUGUCUUUGAUAUUACUUGGCAAAGUACAACAGCUGCCUAAAUACACCUCUCAAAUA` is reported as 0.301 ratio.
`UAUUUUUUAGAACAGCUAUUUGAUUUCUUCUCAAAGUCACUGCUGCCUUCUGAGUUGUAGUUAGCGCCUUCUCCAGCUUCCUGCAGCAUGACAGAAGAGAGAUACAGCAGUUGUUUCAAA` has a bound/input enrichment of 0.371 ratio.
`GAAAAACUGUUUGCUGAAGACACAGAGGCAAAGAAUCCAUUUUCAACUCAGGACACUGAUUUAGAUUUGGAGAUGCUGGCUCCCUAUAUCCCAAUGGAUGAUGAUUUCCAGUUACGUUCC` gave a bound/input enrichment of 0.2 ratio.
With `CAGGCCACAGAAAGCGAGGCUGGUGAUAUGGACCUGAGUGGGUUGCCAGAAACAGCAGUGGAUUCCGAAGACGACGACGAUGAAGAAGACAUUGAGAGAGCAUCAGAUCCUCUGAUGAGC` the bound/input enrichment was 0.115 ratio.
The bound/input enrichment of `ACACAACACAAACAUAAGGAGAGACUUAGUGCUUCACCUCAGGAGGUAGGAAAGCCAUAUUUAGAGUCUUUUCAGCCCAAUUUACAUAUUACAAAAGAUGCUGCAUCUAAUGAAAUUCCA` is reported as 1.14 ratio.
With `CUCCCUCAACCAAUAUAUAGACACAUAGCAUCUUUCCUGUCAGUCUUCAAACUAGUAUUAAUAGGCUUAAUAAUUGUUGGCAAGGAUCCUUUUGCUUUCUUUGGCAUGCAAGCUCCUAGC` the bound/input enrichment was 75.6 ratio.
With `CGGCCCAUGCAGCAGAUGCAACCCACUGCUCCCAGGAACAGUAAUCUCCGUGAACUCCCCAUAGCACCUUCACAUGUUUUGGAGAUGAGUGGUAACCGAUGCUCCUCUACACCUGUUGCU` the bound/input enrichment was 0.393 ratio.
`UUGAAAAACACAGAUAUCAAAGUUGUUGAUUUUGGAAGUGCAACAUAUGACGACGAACAUCAUAGUACUUUGGUGUCCACAAGGCACUACAGGGCUCCAGAGGUCAUUUUGGCUCUAGGU` has a bound/input enrichment of 0.226 ratio.
`AGUGCGCGUGGACGCCGGCCGCGGCGGCGGCACUAUGGGCACGGGGUAGAGGCGAGCUGCCGCCGCCACCGGGGUGGUGGGAGAGCCUCUUCGGGGGAGGGGGCGGGAGGGGAGGGAGGG` has a bound/input enrichment of 1.32 ratio.
`GCGUAUGUUUCGCACUGCUCUUUUACUCUGAGGGUUUAAACAAUAUUUCUCCAGGGGUUUCCUCACUGAGAACCCAUGCAGUCUACUUAAUGCUGUGAAUCACAUUUUCCAAAUGUUUAA` has a bound/input enrichment of 0.162 ratio.

Study 3 — method: RNA Bind-n-Seq; molecule type: RNA; medium: in vitro; tested at: 365 nM; relative to: no-protein control; direction: higher = stronger binding
Target: RNA binding protein fox-1 homolog 2, RRM domain, GST-SBP tag (RBFOX2, Homo sapiens, UniProt O43251-10, residues 100-194)
Notes: natural RNA segment, single round, ends assumed
Shared flanks, not repeated: GGGAGUUCUACAGUCCGACGAUC … UGGAAUUCUCGGGUGCCAA
Construct (chain): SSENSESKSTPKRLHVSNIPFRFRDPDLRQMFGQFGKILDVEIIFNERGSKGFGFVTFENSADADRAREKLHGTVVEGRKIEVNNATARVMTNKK
`AAAAUAUGCUUCUACAUAUUUACCACCAUAGGCGUUUUGUUCAUAUGAGCCUGGUUUGUGCAAAAUUAAAUCAGAGGCUUCUACAACAUGGUUUAUUUAUGUUGUAGCAA` — result for “RBNS enrichment (R)”: 0.588.
For `UAGGGCUGUUAAUCAAUUGUUUUUGUUUUUGUUGUUUUCUUUGCCUGAGUCCUGACAAUUGUAUCCCGGUUCCCCAGGGGACAGUCUGGGUCCCUCUCUGGUCUGACGCU`, “RBNS enrichment (R)” read 6.51.
`AUUGGUGUUGAUGAUUUUGAGCUUGAAUGUUUUCAUACCUGAUUAAAACUUGGUUUAUUCUAAUUUCUGUAUCAUAUCAUCUGAGGUUUACGUGGUAACUAGUCUUAUAA`: “RBNS enrichment (R)” 0.879.
Under “RBNS enrichment (R)”, `AAGCCAUUGUGCUAAGAUCUAAUCUGAGGACACUAUAAUGGCCCUGUCGUCAGGGAAGCCCGUGAUCGCUCGUUUUCAGGGGUCUUACCGGUCAGCAACCUUGGCAUUGA` is recorded as 0.437.
`UUCCUUACACUUUUUUUCUGAAUAAGUCUCUCAUAAUGAGUGCAGUGUCAGACUGUGCCUACUCUGAUGGUAUGUGCCAUUUGUAAAAUAAAAUAGAGCAGAAAAACACA` — result for “RBNS enrichment (R)”: 0.346.
`CCAUCUCUAAUGCCUUUAAAAGGCUAAAGGGGGCUGAAAGGUCCCUGUAUCAGGUGGUUAACCAAGGAAUCCACAUCAACAGGUGGGGCCAUCUUUAAUGUGGGCACCAG`: “RBNS enrichment (R)” 0.198.
`AAAAAUGCCUUUAAAAACCUUCCUGAGACUUAAGCAUUCUGCCCCACUUACUAACUGCCAGUUCUCCAGCACUGAGGUGGGGCAGAUAACGGGGCAUAUUUAAGGGGGCA` — result for “RBNS enrichment (R)”: 0.592.
`AAUCUAUAUUAUUCAUAUUGAAUGUAUUAACAGAUAAUGGUGCAAAAGCAUUCUUCCCAGGGGAAGAGUGUAUCAUGCAUAACUGCAAUUUAAGUCCUUCCUUUGAUAAU`: “RBNS enrichment (R)” 0.235.
`UUUGCAUCCUUUAUUUUUAAUAUUCAUAAUGUCGUGUGCUUAAAAGUGGGCUUUGAAGUGUGUGCUGCUUACUCCUUUCAUCUUUCUCCCCGCUUCCCCAGUCUUUAAAC` — result for “RBNS enrichment (R)”: 0.502.
`AGAUGCCUUUGAUCAGAGUUUGACUCACAGACAGCAUUUGAGCUCUACAGCUAUUUGAGUCCCUAGACCUUAUUUGAUCAUAUUCAAAAGAUCAUUUCCCAUGCUUGCUU`: “RBNS enrichment (R)” 2.07.
`AAUAGGGAAGAAGUGCCCUGCCUGCCAGCUUGGGAGUGAUUUGUACCUGUGUAUUUAUCCUUGAUCAUAGUUUGCUUAUUUAUGUUUAACUCUUCGGACUUCAGAGCACU` — result for “RBNS enrichment (R)”: 0.698.
For `UUGGUAUACUGGUAUGACUACGUCUUAAGUCAGAUUUUUAUUUAUGAGUCUUUGAGACUAAAUUCAAUCACCACCAGGUAUCAAAUCAACUUUUAUGCAGCAAAUAUAUG`, “RBNS enrichment (R)” read 0.739.

Study 4 — target: CCNB3, cyclin fold, Cln2 fusion (human); method: yeast growth competition, sequencing; medium: yeast; notes: strong parent motif; relative to: not given; direction: higher = stronger binding
Starting sequence: RBL2 docking peptide (human); STTRRRLFVENDS; partner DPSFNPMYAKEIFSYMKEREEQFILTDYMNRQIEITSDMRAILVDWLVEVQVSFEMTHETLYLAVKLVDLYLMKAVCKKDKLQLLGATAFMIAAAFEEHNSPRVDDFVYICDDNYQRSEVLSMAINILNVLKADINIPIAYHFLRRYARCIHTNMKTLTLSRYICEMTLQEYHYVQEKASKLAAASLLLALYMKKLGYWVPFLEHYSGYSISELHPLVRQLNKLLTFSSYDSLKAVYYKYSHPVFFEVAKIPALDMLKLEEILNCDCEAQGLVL
`STTRRRLFVEWDS [N11W]`: “normalised enrichment score” 0.616.
For `STTRRRLFVCNDS [E10C]`, “normalised enrichment score” read 0.853.
`STTRRRLFKENDS [V9K]`: “normalised enrichment score” 0.692.
`STTRRRLFVENDR [S13R]` — result for “normalised enrichment score”: 0.985.
`STTRRRLFAENDS [V9A]` — result for “normalised enrichment score”: 1.07.
Under “normalised enrichment score”, `STTRRMLFVENDS [R6M]` is recorded as 0.53.
For `SCTRRRLFVENDS [T2C]`, “normalised enrichment score” read 0.566.
For `STTRRRLFVENGS [D12G]`, “normalised enrichment score” read 0.679.
For `SPTRRRLFVENDS [T2P]`, “normalised enrichment score” read 1.08.
`STTRPRLFVENDS [R5P]` — result for “normalised enrichment score”: 0.727.
`ETTRRRLFVENDS [S1E]` — result for “normalised enrichment score”: 0.402.
Under “normalised enrichment score”, `STTRRCLFVENDS [R6C]` is recorded as 0.51.
Under “normalised enrichment score”, `STTRRRLFVENRS [D12R]` is recorded as 0.964.

Study 5 — target: UBE2E3 UBC core domain (UniProt Q969T4); method: yeast two-hybrid; medium: yeast; notes: mostly zero background; relative to: not given; direction: higher = stronger interaction
UniProt Q969T4, sequence (whole entry, looked up): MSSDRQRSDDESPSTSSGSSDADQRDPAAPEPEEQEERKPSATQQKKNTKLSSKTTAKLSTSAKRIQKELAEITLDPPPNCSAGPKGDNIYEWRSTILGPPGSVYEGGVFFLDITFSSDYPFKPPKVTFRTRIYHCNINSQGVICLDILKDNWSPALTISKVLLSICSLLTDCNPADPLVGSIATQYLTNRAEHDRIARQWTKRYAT
B1: NEURL1 RING domain (UniProt O76050); chain VTPGLGQWSDECTICYEHAVDTVIYTCGHMCLCYACGLRLKKALHACCPICRRPIKDIIKT
B2: TRIM4 RING domain (UniProt Q9C037); chain EAEDIQEELTCPICLDYFQDPVSIECGHNFCRGCLHRNWAPGGGPFPCPECRHPSAPAALRP
B3: TRIM5 RING domain (UniProt Q9C035); chain ILVNVKEEVTCPICLELLTQPLSLDCGHSFCQACLTANHKKSMLDKGESSCPVCRISYQPENIRP
B4: TRAF5 RING domain (UniProt O00463); chain FVERLEERYKCAFCHSVLHNPHQTGCGHRFCQHCILSLRELNTVPICPVDKEVIKSQEVFK
B5: TRIM5 RING domain (UniProt Q9C035); chain LREVKLSPEGQKVDHCARHGEKLLLFCQEDGKVICWLCERSQEHRGHHTFLTEEVAREYQVKL
For `B1 (NEURL1 RING domain)`, “lacZ reporter activity” read 0.
For `B2 (TRIM4 RING domain)`, “lacZ reporter activity” read 0.
Under “lacZ reporter activity”, `B3 (TRIM5 RING domain)` is recorded as 0.
`B4 (TRAF5 RING domain)`: “lacZ reporter activity” 0.
`GAAPGPEAAECLVCSELALLVLFSPCQHRTVCEECARRMKKCIRCQVVVSKKLRPD (MIB2 RING domain (UniProt Q96AX9))` — result for “lacZ reporter activity”: 0.
`B5 (TRIM5 RING domain)`: “lacZ reporter activity” 0.

Some of these lines once more (study 1):
For `L29K`, “relative binding score” read 6.42%.
For `S27L`, “relative binding score” read 6.12%.
`E128R`: “relative binding score” 66%.
`E139L` — result for “relative binding score”: 15.2%.
`Q2A`: “relative binding score” 72.2%.
Under “relative binding score”, `R74M` is recorded as 9.35%.
